Literature values, collected from citations in different studies.
Numbers after ± are the reported error. Converted amounts (≈) assume the structure as drawn.

For CC[C@H](C)[C@H](NC(=O)[C@H](CCCCN)NC(=O)[C@H](CCCCN)NC(=O)[C@H](Cc1ccccc1)NC(=O)[C@H](CC(C)C)NC(=O)[C@H](CCCCN)NC(=O)[C@@H](N)CCCCN)C(=O)N[C@@H](CC(C)C)C(=O)N[C@@H](CCCCN)C(=O)N[C@H](C(=O)N[C@@H](CC(C)C)C(N)=O)C(C)C, the hemolysis was 16 ± 2.9% (horse erythrocytes 5 % v/v; 150 µM).
CN[C@H]1C(=O)N[C@@H]2Cc3ccc(cc3)Oc3cc4cc(c3O[C@@H]3O[C@H](C(=O)O)[C@@H](O)[C@H](O)[C@H]3NC(=O)CCCCCCCCC(C)C)Oc3ccc(cc3Cl)[C@@H](O)[C@@H]3NC(=O)[C@H](NC(=O)[C@@H]4NC(=O)[C@@H](NC2=O)c2cc(cc(O)c2Cl)Oc2cc1ccc2O)c1ccc(O)c(c1)-c1c(O[C@H]2O[C@H](CO)[C@@H](O)[C@H](O)[C@@H]2O)cc(O)cc1[C@@H](C(=O)NCCCN(C)C)NC3=O has an unbound fraction of roughly 7% (human, plasma; dose not given).
Cc1ccccc1-c1cc(N2CCN(C)CC2)ncc1N(C)C(=O)C(C)(C)c1cc(C(F)(F)F)cc(C(F)(F)F)c1 has a half-life of 93.8 h (patients, plasma; oral, dose not given, netupitant-palonosetron combination, together with: docetaxel 75 to 100 mg/m^2 IV).
For CN(CCOc1ccc(CC2SC(=O)NC2=O)cc1)c1ccccn1 (centres unmarked), “excreted as N-desmethyl and p-hydroxy metabolites” read roughly 60% (urine and feces).
O=c1c(-c2ccc(O)cc2)coc2cc(O)cc(O)c12 has a Cmax of 1.84 µM (plasma; concentration not given).
For O=C(CCCCCCC(=O)Nc1ccccc1)NO, the half-life was 1.2 h (human; 200 mg, literature mean).
With O=C1c2ccccc2-c2c1c1ccc([N+](=O)[O-])cc1c(=O)n2C[C@H](O)CO the GI50 was 0.04 µM (prostate DU-145; cell growth).
For C[C@@H](N)c1cc(Cl)ccc1Cn1c(=S)[nH]c(=O)c2[nH]ccc21, the exposure ratio was roughly 2 fold (human, severe renal impairment; relative to: matched normal renal function).
For O=c1ccc2ccccc2o1, the Cmax was 1.25 µM (plasma; concentration not given).
For CO[C@H]1C[C@@H]2CC[C@@H](C)[C@@](O)(O2)C(=O)C(=O)N2CCCC[C@H]2C(=O)O[C@H]([C@H](C)C[C@@H]2CC[C@@H](O)[C@H](OC)C2)CC(=O)[C@H](C)/C=C(\C)[C@@H](O)[C@@H](OC)C(=O)[C@H](C)C[C@H](C)/C=C/C=C/C=C/1C, “volume of distribution” read 12 ± 5 L/kg (population PK model; paediatric neurofibromatosis patients; dose not given).
O=C(O)CCCC[C@@H]1SC[C@@H]2NC(=O)N[C@@H]21 has a Cmax of less than 1 µM (plasma; concentration not given).
Cc1c(N(C)CS(=O)(=O)O)c(=O)n(-c2ccccc2)n1C: “protein level and activity” “increased” (measured: CYP2B6; human patients treated vs untreated, liver microsomes; dose not given; relative to: untreated patients).
For CO[C@H]1C[C@@H]2CC[C@@H](C)[C@@](O)(O2)C(=O)C(=O)N2CCCC[C@H]2C(=O)O[C@H]([C@H](C)C[C@@H]2CC[C@@H](OC(=O)C(C)(CO)CO)[C@H](OC)C2)CC(=O)[C@H](C)/C=C(\C)[C@@H](O)[C@@H](OC)C(=O)[C@H](C)C[C@H](C)/C=C/C=C/C=C/1C, the terminal half-life was 12.8 h (human; intravenous, 25 mg once weekly, day 7 or 28).
Nc1nc2c(nc(Sc3ccc(Cl)cc3)n2C2OC3COP(O)(=S)OC3C2O)c(=O)[nH]1 (centres unmarked): “Km or Ki” 26 µM (PDE6; cyclic nucleotide hydrolysis, substrate or inhibitor, isothermal titration calorimetry).
Cc1cnc(NC(=O)C2=C(O)c3ccccc3S(=O)(=O)N2C)s1 has a Km of 26 µM (bioactivation, substrate; human liver microsomes).
CN(C)C(=O)c1cc2cnc(Nc3ccc(N4CCNCC4)cn3)nc2n1C1CCCC1 gave an unbound concentration of 2.32 ± 1.79 nmol/g (recurrent brain tumour patients, MRI-enhancing tumour; 900 mg/day, 5 days).
C[C@]12CC[C@H](OS(=O)(=O)O)CC1=CC[C@@H]1[C@@H]2CC[C@]2(C)C(c3cccnc3)=CC[C@@H]12 has an unbound fraction of less than 0.15% (human, plasma).
CCS(=O)(=O)N1CC(CC#N)(n2cc(-c3ncnc4[nH]ccc34)cn2)C1 has an AUC increase of 4 fold (rheumatoid arthritis patients, severe renal impairment; dose not given, eGFR below 30 mL/min/1.73 m^2; relative to: normal renal function).
CN1CCc2nc(C(=O)N[C@@H]3C[C@@H](C(=O)N(C)C)CC[C@@H]3NC(=O)C(=O)Nc3ccc(Cl)cn3)sc2C1 — result for “non-renal clearance fraction”: 50% (human; share of total clearance).
Under drug level, CC(C)(C)c1nc(-c2cccc(NS(=O)(=O)c3c(F)cccc3F)c2F)c(-c2ccnc(N)n2)s1 is recorded as “not detected” (MALDI mass spectrometry imaging; blood-brain barrier organoids; 10 µM, 24 h, 37 °C).
CC[C@@H]1C(=O)N(C)c2cnc(Nc3ccc(C(=O)NC4CCN(C)CC4)cc3OC)nc2N1C1CCCC1 — result for “volume of distribution”: 1000 L (human patients; dose not given).
For COc1cc(Nc2ncc3c(n2)-c2ccc(Cl)cc2C(c2c(F)cccc2OC)=NC3)ccc1C(=O)O, “discontinuation due to adverse events” read 10% (cancer patients, phase II; 50 mg twice daily).
Under “average blood concentration”, CCN(CCO)CCCC(C)Nc1ccnc2cc(Cl)ccc12 (centres unmarked) is recorded as 2.8 µM (rheumatoid arthritis patients, whole blood; 400 mg daily).
CC[C@H](C)[C@H](NC(=O)[C@@H](NC(=O)[C@@H](NC(=O)CNC(=O)CNC(=O)[C@@H](NC(=O)[C@H](CCSC)NC(=O)[C@H](CC(C)C)NC(=O)CN)C(C)C)C(C)C)C(C)C)C(=O)N[C@@H](C)C(=O)O has a solubility of 134 ± 37 µM (≈ 123 µg/mL) (filtration; sodium phosphate buffer; pH 7.4).
With COc1cc(C[C@H]2C(=O)OC[C@@H]2Cc2ccc(OC)c(OC)c2)ccc1O the Cmax increase was 357% (diabetic rats; oral, dose not given; relative to: normal rats).
Under “Km or Ki”, CO[C@@H]1[C@@H]2OP(=O)(O)OC[C@H]2O[C@H]1n1c(Sc2ccc(Cl)cc2)nc2c(N)ncnc21 is recorded as 3.12 µM (PDE5; cyclic nucleotide hydrolysis, substrate or inhibitor, isothermal titration calorimetry).
CO[C@H]1C[C@@H]2CC[C@@H](C)[C@@](O)(O2)C(=O)C(=O)N2CCCC[C@H]2C(=O)O[C@H]([C@H](C)C[C@@H]2CC[C@@H](O)[C@H](OC)C2)CC(=O)[C@H](C)/C=C(\C)[C@@H](O)[C@@H](OC)C(=O)[C@H](C)C[C@H](C)/C=C/C=C/C=C/1C gave a terminal half-life of 12.6 h (kidney transplant recipients; calcineurin inhibitor-free protocol).
CC[C@@H](C)[C@@H](NC(=O)[C@@H](CCCCN)NC(=O)[C@@H](CCCCN)NC(=O)[C@@H](Cc1ccccc1)NC(=O)[C@@H](CC(C)C)NC(=O)[C@@H](CCCCN)NC(=O)[C@H](N)CCCCN)C(=O)N[C@@H](CC(C)C)C(=O)N[C@@H](CCCCN)C(=O)N[C@@H](Cc1ccc(O)cc1)C(=O)N[C@@H](CC(C)C)C(N)=O gave a hemolysis of 1 ± 0.5% (horse erythrocytes 5 % v/v; 150 µM).
C=C1/C(=C\C=C2/CCC[C@]3(C)[C@@H]([C@H](C)CC(=O)O)CC[C@@H]23)C[C@@H](O)C[C@@H]1O has a blood concentration of less than 0.006 µM (LC-MS/MS; mouse, blood; below detection limit).
For C#Cc1cccc(Nc2ncnc3cc(OCCOC)c(OCCOC)cc23)c1, the absorption decrease was 40 to 50% (concentration not given, together with: acid-reducing drugs).
Cc1c(N(C)CS(=O)(=O)O)c(=O)n(-c2ccccc2)n1C has a Cmax of 34.5 µM (plasma; concentration not given).
Nc1nc(NC2CC2)c2ncn([C@H]3C=C[C@@H](CO)C3)c2n1 gave an AUC(0-t) of 12900 ng·h/mL (Japanese HIV-infected patients; oral, 600 mg single dose, fasted, together with: lamivudine 300 mg).
With CNC(C)C1CCC(N)C(OC2C(N)CC(N)C(OC3OCC(C)(O)C(NC)C3O)C2O)O1 (centres unmarked) the Cmax was 13 µM (plasma; concentration not given).
O=C(O)CNC(=O)c1ccccc1[131I] — result for “percent injected dose”: 0.5 %ID (normal rat, kidney; 60 min, together with: co-injected 99mTc-1).
For CC[C@H](C)CCCCC(=O)N[C@@H](CCN)C(=O)N[C@H](C(=O)N[C@@H](CCN)C(=O)N[C@H]1CCNC(=O)[C@H]([C@@H](C)O)NC(=O)[C@H](CCN)NC(=O)[C@H](CCN)NC(=O)[C@H](CC(C)C)NC(=O)[C@@H](Cc2ccccc2)NC(=O)[C@H](CCN)NC1=O)[C@@H](C)O, the total clearance was 2.5 L/h (population PK model; patients; intravenous, typical value).
CC(C)(C)NC(=O)[C@@H]1C[C@@H]2CCCC[C@@H]2CN1C[C@@H](O)[C@H](Cc1ccccc1)NC(=O)[C@H](CC(N)=O)NC(=O)c1ccc2ccccc2n1 has a CL/F of 1.26 L/h (human HIV patients; 600 mg single dose, together with: grapefruit juice 200 mL).
Under “maximum whole-body concentration”, O=C(Nc1ccc(Cl)cc1)Nc1ccc(Cl)c(Cl)c1 is recorded as 6.5 ng/g (juvenile Chinook salmon, whole body wet weight; concentration not given, field-collected).
COc1cc(F)c(C(C)C)cc1-c1ccc(C(F)(F)F)cc1CN1C(=O)O[C@H](c2cc(C(F)(F)F)cc(C(F)(F)F)c2)[C@@H]1C: “plasma concentration after discontinuation” 40% (human; dose not given, twelve weeks after discontinuation; relative to: during treatment).
O=C(O)c1ccccc1O gave a Cmax of 605 µM (plasma; concentration not given).
OC(Cn1cncn1)(Cn1cncn1)c1ccc(F)cc1F gave an aqueous solubility of 0.55 log mg/mL (water; hydrate).
C=C1CC[C@@H]2[C@](C)(CO)[C@H](O)CC[C@@]2(C)[C@@H]1C/C=C1/C(=O)OC[C@H]1O gave an effective permeability of 4.08 ×10⁻⁶ cm/s (rat, colon; no cyclodextrin).
For Cc1cc(S(C)(=O)=O)c(S(C)(=O)=O)cc1C(=O)NC(=N)N, tolerability read “not toxic” (patients with chronic heart failure; 300 mg daily, 8 days, together with: standard heart failure medication).
COc1ccc2c(O[C@@H]3C[C@H]4C(=O)N[C@]5(C(=O)NS(=O)(=O)C6CC6)C[C@H]5/C=C\CCCCN(C)C(=O)[C@@H]4C3)cc(-c3nc(C(C)C)cs3)nc2c1C — result for “grade 3-4 adverse events”: less than 5% (HCV genotype 1 patients; dose not given, together with: sofosbuvir).
The Cmax of CCCC(CCC)C(=O)O is reported as 902 µM (plasma; concentration not given).
CNC(=O)c1cc(Oc2ccc(NC(=O)Nc3ccc(Cl)c(C(F)(F)F)c3)cc2)ccn1: “patients with thrombocytopenia” 12% (patients; dose not given, all grades).
With CC(C)c1nc(N(C)S(C)(=O)=O)nc(-c2ccc(F)cc2)c1/C=C/[C@@H](O)C[C@@H](O)CC(=O)O the Cmax ratio was 3.5 (cynomolgus monkey; dose not given, cassette dosing, together with: probenecid; relative to: with over without probenecid).
With Nc1ccn([C@@H]2CS[C@H](CO)O2)c(=O)n1 the aqueous solubility was 84.9 mg/mL (≈ 370 mM) (water; hydrate form).
With O=c1c2nc(Br)n([C@@H]3O[C@@H]4COP(=O)(O)O[C@H]4[C@H]3O)c2nc2[nH]c(-c3ccccc3)cn12 the log Kw was 2.83 (methanol/water).
CCS(=O)(=O)N1CC(CC#N)(n2cc(-c3ncnc4[nH]ccc34)cn2)C1 — result for “dose elevating aPTT”: no less than 30 mg/kg/day (rats; non-GLP toxicity).
Cc1cc2c(s1)Nc1ccccc1N=C2N1CCN(C)CC1 — result for “increase in Cmax”: 84% (healthy male smokers; dose not given, together with: fluvoxamine).
With Nc1ccn([C@@H]2CS[C@H](CO)O2)c(=O)n1 the median Tmax was 2 h (Japanese HIV-infected patients; 300 mg, single dose, fasted, together with: abacavir 600 mg).
CNS(=O)(=O)Cc1ccc2[nH]cc(CCN(C)C)c2c1 has a Cmax of 0.04 µM (plasma; concentration not given).
O=C1c2cccc3c2[C@H](CCC3)CN1[C@@H]1CN2CCC1CC2 has a CL/F of 14.5 L/h (healthy volunteers, plasma; oral, dose not given, netupitant-palonosetron combination, together with: oral contraceptives).

For quick reference, copied from above:
Cc1cc2c(s1)Nc1ccccc1N=C2N1CCN(C)CC1 — result for “increase in Cmax”: 84% (healthy male smokers; dose not given, together with: fluvoxamine).
With CC(C)c1nc(N(C)S(C)(=O)=O)nc(-c2ccc(F)cc2)c1/C=C/[C@@H](O)C[C@@H](O)CC(=O)O the Cmax ratio was 3.5 (cynomolgus monkey; dose not given, cassette dosing, together with: probenecid; relative to: with over without probenecid).
Under drug level, CC(C)(C)c1nc(-c2cccc(NS(=O)(=O)c3c(F)cccc3F)c2F)c(-c2ccnc(N)n2)s1 is recorded as “not detected” (MALDI mass spectrometry imaging; blood-brain barrier organoids; 10 µM, 24 h, 37 °C).
O=C(O)CCCC[C@@H]1SC[C@@H]2NC(=O)N[C@@H]21 has a Cmax of less than 1 µM (plasma; concentration not given).
The Cmax of CCCC(CCC)C(=O)O is reported as 902 µM (plasma; concentration not given).
CCS(=O)(=O)N1CC(CC#N)(n2cc(-c3ncnc4[nH]ccc34)cn2)C1 has an AUC increase of 4 fold (rheumatoid arthritis patients, severe renal impairment; dose not given, eGFR below 30 mL/min/1.73 m^2; relative to: normal renal function).
CNS(=O)(=O)Cc1ccc2[nH]cc(CCN(C)C)c2c1 has a Cmax of 0.04 µM (plasma; concentration not given).
For CC[C@H](C)[C@H](NC(=O)[C@H](CCCCN)NC(=O)[C@H](CCCCN)NC(=O)[C@H](Cc1ccccc1)NC(=O)[C@H](CC(C)C)NC(=O)[C@H](CCCCN)NC(=O)[C@@H](N)CCCCN)C(=O)N[C@@H](CC(C)C)C(=O)N[C@@H](CCCCN)C(=O)N[C@H](C(=O)N[C@@H](CC(C)C)C(N)=O)C(C)C, the hemolysis was 16 ± 2.9% (horse erythrocytes 5 % v/v; 150 µM).
